Assay results gathered from unrelated publications.
A part holds a random share of what one study measured.

Sample 1 — technique: protein binding microarray; form: double-stranded DNA, one strand shown; sample: in vitro; tested at: not given; relative to: not given; reading: higher = stronger binding
Target: Histone acetyltransferase KAT6A, both winged helices, GST fusion (KAT6A, Homo sapiens, UniProt Q92794, residues 1-181)
Setting: 8-mer, flanks averaged, mean of 2 arrays, mostly near background
Residues (chain): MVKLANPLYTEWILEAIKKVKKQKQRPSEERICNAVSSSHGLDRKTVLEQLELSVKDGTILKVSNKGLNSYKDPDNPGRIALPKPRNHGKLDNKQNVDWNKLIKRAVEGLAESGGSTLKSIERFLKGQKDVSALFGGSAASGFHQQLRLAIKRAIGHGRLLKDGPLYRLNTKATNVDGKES
Sequence	E-score
CCTGTGCC	-0.0236
ATGACAAA	-0.122
ACCAAAAA	0.0317
ATCTGCAA	-0.228
CCGCGAAG	0.231
CCGAGCGG	0.279
CGAGTTAC	-0.00494
AGACGGAG	0.0308

Sample 2 — technique: universal PBM; form: double-stranded DNA, one strand shown; sample: in vitro; tested at: not given; reading: higher = stronger binding
Target: Sal-like protein 4, full length isoform B (SALL4, Homo sapiens, UniProt Q9UJQ4-2, residues 1-616)
Setting: 8-mer, flanks averaged, mean of replicates
Residues (chain): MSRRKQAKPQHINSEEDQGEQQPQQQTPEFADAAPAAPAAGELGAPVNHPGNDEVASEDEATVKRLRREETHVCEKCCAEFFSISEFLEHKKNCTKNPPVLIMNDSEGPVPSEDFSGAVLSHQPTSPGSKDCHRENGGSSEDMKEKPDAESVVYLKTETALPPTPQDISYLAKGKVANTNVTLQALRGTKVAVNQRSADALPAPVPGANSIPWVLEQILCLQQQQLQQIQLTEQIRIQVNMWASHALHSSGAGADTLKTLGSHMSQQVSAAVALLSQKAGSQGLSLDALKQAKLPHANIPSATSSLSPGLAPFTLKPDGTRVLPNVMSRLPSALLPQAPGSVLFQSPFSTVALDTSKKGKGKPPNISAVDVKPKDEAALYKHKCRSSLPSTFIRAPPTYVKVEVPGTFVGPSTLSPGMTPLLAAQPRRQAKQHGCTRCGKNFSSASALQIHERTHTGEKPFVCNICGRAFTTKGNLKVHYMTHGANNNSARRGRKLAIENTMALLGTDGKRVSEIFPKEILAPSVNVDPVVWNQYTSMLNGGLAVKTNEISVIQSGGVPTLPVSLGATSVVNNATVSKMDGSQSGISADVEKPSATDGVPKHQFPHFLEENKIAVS
Sequence	E-score
AGGTAATC	0.192
CAGAAATA	0.319
CTACACAA	0.172
GCGCCACC	-0.346
AGATCCCC	-0.146

Sample 3 — technique: competition protein-binding microarray; form: double-stranded DNA, one strand shown; sample: in vitro; tested at: 2 µM; added: Pho4 competitor, 0.05 µM; reading: higher = stronger binding; shared flanks, not repeated: … GTCTTGATTCGCTTGACGCTGCTG
Target: Centromere-binding protein 1, full length, His-tagged (CBF1, Saccharomyces cerevisiae, UniProt P17106, residues 1-351)
Chain of UniProt P17106 (whole entry, looked up): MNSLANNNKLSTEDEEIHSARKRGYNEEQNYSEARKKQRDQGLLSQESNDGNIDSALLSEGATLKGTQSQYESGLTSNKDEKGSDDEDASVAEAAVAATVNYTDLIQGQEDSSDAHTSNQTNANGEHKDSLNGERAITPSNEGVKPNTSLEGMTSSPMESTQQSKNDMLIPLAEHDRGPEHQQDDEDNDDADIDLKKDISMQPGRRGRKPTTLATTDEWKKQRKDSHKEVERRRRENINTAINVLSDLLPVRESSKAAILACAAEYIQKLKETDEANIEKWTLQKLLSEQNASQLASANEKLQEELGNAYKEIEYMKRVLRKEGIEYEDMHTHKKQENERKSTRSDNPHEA
Setting: whole 60-bp probe, lowest competitor level
Sequence	fluorescence intensity [a.u.]
CAACCGCGTCGGCCCAACCTGATCTTGCAATTAGCA	55.1
AGGCCACCGGGAAGTCACGTGGCCGGCTGCTGCCTC	9340
ATGCAAATGCCTCACCACGTGCAAATGTGAAAAGAG	1700
TGTTAAAGTTGTATCCATGTGTGCCCATAATGCCGA	96.5
TACAAATTGCCCGTCCACGTTCGTCGTTCTAACTTC	74.9
ATCGACTCTCCTTGTCACGTTGACTTCTCCTCTGAA	433
GAATTTACTAACGAACTCGTGTTCCGGACCGCTGGC	96.4

Mixed results
Substance	target	assay	test system	setting	how to read	endpoint	result
PhoQ, residues 284 288 289 292 302 303 TLASMF	PhoP, residues 12 14 15 18 19 SEGLL (Escherichia coli, UniProt P23836)	Sort-seq, measured: YFP reporter	E. coli	PhoQ-PhoP variant library, added: 10 µM Mg2+	relative to: high Mg2+ state, higher = stronger signaling	fold induction	19.1

Repeated from above (sample 3):
Sequence	fluorescence intensity [a.u.]
CAACCGCGTCGGCCCAACCTGATCTTGCAATTAGCA	55.1
AGGCCACCGGGAAGTCACGTGGCCGGCTGCTGCCTC	9340
